Experimental data from different studies.
A part holds a random share of what one study measured. Positions count from the first letter of the parent shown.

Study 1
Target: Interferon regulatory factor 3, full length, phosphomimetic (IRF3, Homo sapiens, UniProt Q14653, residues 1-427, S386D/S396D/S398D/S402D/T404D/S405D)
Method: protein-binding microarray
Molecule type: double-stranded DNA, one strand shown
Medium: in vitro
Concentration: 2540 nM top
Setting: 60-bp whole probe
Together with: salmon DNA 0.4 mg/ml
Reference: random background probes
Direction: higher = stronger binding
Shared flanks, not repeated: GCCTAGCAC … GTCTTGATTCGCTTGACGCTGCTG
Target sequence (chain): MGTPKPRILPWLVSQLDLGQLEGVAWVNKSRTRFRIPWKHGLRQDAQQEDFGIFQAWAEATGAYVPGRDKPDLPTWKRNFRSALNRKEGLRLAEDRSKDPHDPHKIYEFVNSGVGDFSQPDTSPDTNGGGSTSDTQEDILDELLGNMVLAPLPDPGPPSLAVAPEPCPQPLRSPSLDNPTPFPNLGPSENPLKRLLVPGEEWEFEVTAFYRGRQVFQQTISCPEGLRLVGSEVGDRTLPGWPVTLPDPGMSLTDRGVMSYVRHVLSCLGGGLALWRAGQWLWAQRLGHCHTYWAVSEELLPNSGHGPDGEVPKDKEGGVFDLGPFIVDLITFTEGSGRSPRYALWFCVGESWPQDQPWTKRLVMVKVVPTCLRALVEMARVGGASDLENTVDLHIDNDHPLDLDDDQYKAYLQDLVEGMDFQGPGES
Sequence	fitted relative affinity [z-score]
TTAGATTTCGGGTTTCGACTAGTGCTA	2.51
TTAGATTTCGGGTTTTGATTAGTGCTA	1.96
GACGGACTGATTATCCTGACGTGCTAG	0.343
TCACTTTCACTTCTCCCACTGTGCTAG	6.87
TAAGGTCTCGGTATCGGTTAGTGCTAG	2.65
TTAGGACTGGGTTTCGGCTAGTGCTAG	0.154
ATTACTCCCCAACTCGCCTTGTGCTAG	1.28
TTAGGTCTCCTTCTCCCTTAGTGCTAG	4.13

Study 2
Target: CCNA2, cyclin fold, Cln2 fusion (human)
Method: yeast growth competition, sequencing
Medium: yeast
Setting: strong parent motif
Reference: not given
Direction: higher = stronger binding
Starting sequence: CDKN1B docking peptide (human); PSACRNLFGPVDH; partner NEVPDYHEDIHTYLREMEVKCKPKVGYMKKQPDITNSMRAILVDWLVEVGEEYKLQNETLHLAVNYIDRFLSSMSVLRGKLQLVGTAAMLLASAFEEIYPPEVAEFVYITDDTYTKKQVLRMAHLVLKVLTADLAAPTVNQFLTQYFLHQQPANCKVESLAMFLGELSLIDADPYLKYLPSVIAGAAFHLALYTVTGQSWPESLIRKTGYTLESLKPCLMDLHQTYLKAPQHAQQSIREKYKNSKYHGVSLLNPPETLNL
Change	normalised enrichment score
PSACRALFGPVDH [N6A]	3.21
PSACVNLFGPVDH [R5V]	0.067
PSACRNLFFPVDH [G9F]	1.53
PSAQRNLFGPVDH [C4Q]	2.01
PSACRNLFGPWDH [V11W]	4.13
PAACRNLFGPVDH [S2A]	3.85
PSACKNLLGPVDH [R5K F8L]	0.445

Study 3
Target: Centromere-binding protein 1, full length, N-terminal tag (CBF1, Saccharomyces cerevisiae, UniProt P17106, residues 1-351)
UniProt P17106, sequence (whole entry, looked up): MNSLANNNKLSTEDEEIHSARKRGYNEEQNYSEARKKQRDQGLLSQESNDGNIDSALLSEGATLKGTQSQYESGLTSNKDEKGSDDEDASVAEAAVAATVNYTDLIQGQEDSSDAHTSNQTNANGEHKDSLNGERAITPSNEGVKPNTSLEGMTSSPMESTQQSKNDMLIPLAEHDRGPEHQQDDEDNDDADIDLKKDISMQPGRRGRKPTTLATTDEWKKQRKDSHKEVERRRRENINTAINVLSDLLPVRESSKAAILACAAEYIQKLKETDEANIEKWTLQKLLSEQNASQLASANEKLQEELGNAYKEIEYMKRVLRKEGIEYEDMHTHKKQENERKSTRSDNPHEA
Method: protein-binding microarray
Molecule type: double-stranded DNA, one strand shown
Medium: in vitro
Concentration: 0.8 µM
Setting: whole 60-bp probe, no competitor
Direction: higher = stronger binding
Shared flanks, not repeated: … GTCTTGATTCGCTTGACGCTGCTG
Sequence	fluorescence intensity
GAATGGTACGGCACCCACGGTACCTTACATTATTAG	496 a.u.
CTAATGTCTTGCTCACCTGCAATAGCCCGCGTATTC	531 a.u.
GAATTGCCCATTGAGCACATGATCAGTGAGTGTTAG	3510 a.u.
CTATGATATTTTCACCAGACATTTCTTTAGCCATTC	534 a.u.
CTAGAGCAACAAATACATGTGAGCTTAGAAAGATTC	666 a.u.
CTAGTAAACGGAGAAGACGTGGTAGGACTCGCATTC	486 a.u.
CTAGGGTGTGTTGGTGGTGCTTGCGGTACTTGTTTC	521 a.u.
GAACGAAAAATAAATCATATGAGATTTTAGTACTAG	531 a.u.
TGTACGAAGCTATATATCGTGCTTATAGTAGTTAGG	549 a.u.

Single results of other studies
Substance	target	assay	system	conditions	how to read	endpoint	value
PhoQ, residues 284 288 289 292 302 303 SNSSNI	PhoP, residues 12 14 15 18 19 VQGLL (Escherichia coli, UniProt P23836)	Sort-seq, measured: YFP reporter	E. coli	PhoQ-PhoP variant library, together with: 10 µM Mg2+	reference: high Mg2+ state, higher = stronger signaling	fold induction	3.22

Excerpt of the above (study 2):
Change	normalised enrichment score
PSAQRNLFGPVDH [C4Q]	2.01
PSACKNLLGPVDH [R5K F8L]	0.445
